Published values pooled from the literature.
Every numbered part comes from another study and shows a few of its results, in no order.

Set 1 — technique: RNA Bind-n-Seq; form: RNA; matrix: in vitro; concentration: not given; setting: RNA with constant flanks, ends assumed; reference: input RNA pool; direction: higher = stronger binding
Target: RING finger protein unkempt homolog, zinc fingers 1-6, GST-SBP tag (UNK, Homo sapiens, UniProt Q9C0B0, residues 30-357)
Constant ends, left off below: GGGAGUUCUACAGUCCGACGAUC … CAACAGAGGAUUGAGCAUCA
Construct (chain): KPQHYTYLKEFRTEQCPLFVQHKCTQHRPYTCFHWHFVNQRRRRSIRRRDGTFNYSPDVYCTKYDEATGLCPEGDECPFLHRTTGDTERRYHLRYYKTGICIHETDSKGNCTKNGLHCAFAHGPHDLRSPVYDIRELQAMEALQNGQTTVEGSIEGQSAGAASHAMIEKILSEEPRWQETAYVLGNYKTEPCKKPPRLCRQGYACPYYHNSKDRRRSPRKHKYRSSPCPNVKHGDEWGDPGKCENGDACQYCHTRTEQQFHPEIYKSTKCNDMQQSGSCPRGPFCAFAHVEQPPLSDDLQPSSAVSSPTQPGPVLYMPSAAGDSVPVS
With `UUUCUAUUGCAGCAGACCAUGCUACGAGUGAAGGAUCCUAAGAAGUCACUGGAUUUUUAUACCCGAGUUCUUGGAAUGACGCUAAUCCAAAAAUGUGAUUUUCCCAUUAUGAAGUUUUCA` the bound/input enrichment was 0.0857 ratio.
For `GCUGCCAUGGCUGCAAGGCCCCAUUCCAUUGAUGGCAGGGUAGUUGAGCCAAAACGUGCUGCCGCAAGAGAGGAGUCUGGAAAACCAGGAGCCCAUGUGACUGUGAAGAAGCUGUUUGUU`, the bound/input enrichment was 0.11 ratio.
`AGAUUCAAACCUGUGGUACCAUGGCCUCAUGUUGAAGGAGUAGAAGUGGACUUAGAGUCUAUCCGAAGAAUAAACAAGGCCAAAAAUGAACAAGAGCACCAUGCUGGAGGAGAUUCCCAG` gave a bound/input enrichment of 0.261 ratio.
For `UCCACGUCAGAAGACAAUCGCCCUUUAACUGGACUUGCAGCUGCAAUUGCGGGAGCAAAACUCCGGAAAGUGUCCCGGGUGGAGGAUGGCUCUUUCCCAGGUGGAGGGAAUACUGGGAGU`, the bound/input enrichment was 0.165 ratio.
The bound/input enrichment of `AAAUGAAGGUACAUAUACAUGAUCUGAGUAACCAUUUCCUCUGUGGCCAAUCUGUAUGCUUUCCGAAGUUUACAAAACUGCUUUGGUUUUUGUCUGUAACCAUCUCUGUCAUCCCAAUAA` is reported as 0.362 ratio.
With `GCUCCUAUUAAUGAAGUAGCACGAUUUAAUCUGAUGCAGGUAGGCCGCCUUUUGCAGCAGUCCGCAAUGACUGGCUCUGAAGAGGGAGAUCCCCGAACAAAGAGCAGCCUUGGAAAGUUU` the bound/input enrichment was 0.351 ratio.
The bound/input enrichment of `UCUCUUCUCUUAAGUUAUGGUGCAGACCCAACACUGCUCAAUUGUCACAAUAAAAGUGCUACCGACUUGGCUCCCACACCACAGUUAAAAGAAAGAUUAGCAUAUGAAUUUAAAGGCCAC` is reported as 5.81 ratio.
With `CUCGGCACUGGUACCCUUUACAUCGCUGAGAGCCGCCUGUCUUGGUUAGAUGGCUCUGGAUCCGGAUUCUCACUGGAAUACCCCACCAUUAGUUUACAUGCAUUAUCCAGGGACCGAAGU` the bound/input enrichment was 3.66 ratio.

Set 2 — technique: protein binding microarray; form: double-stranded DNA, one strand shown; matrix: in vitro; concentration: not given; reference: not given; direction: higher = stronger binding
Target: Histone acetyltransferase KAT6A, winged helix 2, GST fusion (KAT6A, Homo sapiens, UniProt Q92794, residues 85-181)
Setting: 8-mer, flanks averaged, mean of 2 arrays, mostly near background
Construct (chain): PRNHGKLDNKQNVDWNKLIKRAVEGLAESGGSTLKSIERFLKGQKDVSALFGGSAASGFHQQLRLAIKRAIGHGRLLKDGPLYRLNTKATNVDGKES
For `CCCCAGAA`, the E-score was -0.00636.
`ACGGCCTG` gave an E-score of 0.176.
`GAGCTGCC` gave an E-score of 0.0451.
The E-score of `CAGATTCC` is reported as 0.0339.
`ACTTACAA` has an E-score of 0.0219.
`AGGGTCCC` has an E-score of -0.0076.
`GTGCTAAA` gave an E-score of 0.0908.
`TCATTCAA` gave an E-score of -0.0608.
The E-score of `CTTGGTAC` is reported as -0.0317.
`CATATGAC` gave an E-score of -0.147.
With `GCCGATAC` the E-score was -0.126.
For `CCCCATTA`, the E-score was -0.215.
With `CCAATACG` the E-score was -0.0615.
The E-score of `GATTAAGC` is reported as -0.0527.
`GTCTTCCA` gave an E-score of 0.0947.
`ACGGGCCG` gave an E-score of 0.0309.
`AATATGAA` gave an E-score of -0.118.
`CCCGTGCC` gave an E-score of -0.0325.
`GACCCAAA` has an E-score of 0.048.
With `CAAAGCCC` the E-score was 0.0556.
`CAGCCGAC` gave an E-score of -0.0362.
The E-score of `CTGGAAAG` is reported as -0.0136.
`GTAGGGAA` has an E-score of -0.086.
`CTTCCTAC` has an E-score of -0.0918.
`GGAAAGGA` has an E-score of -0.0491.

Set 3 — technique: competition protein-binding microarray; form: double-stranded DNA, one strand shown; matrix: in vitro; concentration: 2 µM; added: Pho4 competitor, 0.05 µM; direction: higher = stronger binding; constant ends, left off below: … GTCTTGATTCGCTTGACGCTGCTG
Target: Centromere-binding protein 1, full length, His-tagged (CBF1, Saccharomyces cerevisiae, UniProt P17106, residues 1-351)
UniProt P17106, sequence (whole entry, looked up): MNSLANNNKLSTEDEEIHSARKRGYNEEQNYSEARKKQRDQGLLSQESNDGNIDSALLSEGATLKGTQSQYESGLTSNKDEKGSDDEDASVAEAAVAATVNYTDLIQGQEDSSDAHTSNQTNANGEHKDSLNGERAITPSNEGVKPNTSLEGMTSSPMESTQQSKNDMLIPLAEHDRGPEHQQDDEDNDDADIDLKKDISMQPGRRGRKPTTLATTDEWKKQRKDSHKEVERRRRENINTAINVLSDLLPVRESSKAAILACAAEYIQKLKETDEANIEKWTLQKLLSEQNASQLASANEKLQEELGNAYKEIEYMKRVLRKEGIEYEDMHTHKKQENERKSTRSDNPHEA
Setting: whole 60-bp probe, lowest competitor level
`TAAGGGCCAGGATGACAGGTGATGCTGCTTGCATTT` has a fluorescence intensity of 79 a.u.
The fluorescence intensity of `GGCAAAATCAATCTTGACGTGCCAGATATGTTAAAA` is reported as 70.2 a.u.
With `TTCATTGTAGATAGTACCGTGATGGCCTTCGGCAGG` the fluorescence intensity was 98.1 a.u.
For `GCGCTTGCATCGCTGCATGTGTTAACCGAAAAGTTT`, the fluorescence intensity was 80.2 a.u.
`TGAAAAGTTACGGATCAGGCTTTAACCACCGTAGAC` gave a fluorescence intensity of 66.5 a.u.
`CCACTTTTTTTCAAATGTGTGACGAACCCATACCCC` gave a fluorescence intensity of 79.8 a.u.
`CGTCCTAGTGATTGCACGGTGGGTGCCATGAGGAAG` gave a fluorescence intensity of 87.6 a.u.
`AAATTACTAAGTTGTCACTCCACTTACCCCGTATGA` gave a fluorescence intensity of 74.6 a.u.
The fluorescence intensity of `CTAACGAAGGTTTGTCACGATACTTACAAGCCAAGT` is reported as 220 a.u.
`GTATTATTATTCAAACGCGTGGTGATAGTCCCTTGA` has a fluorescence intensity of 106 a.u.
`AAATTACTAAGTTTTCACGTGAAGTACCCCGTATGA` has a fluorescence intensity of 801 a.u.
With `ACTCAAAAGCGTACTCACGTTTTGAAGAAGAACCCA` the fluorescence intensity was 175 a.u.
`TGCGCAACAACTTGGTCCGTGGGTGTATGTCTAGAA` gave a fluorescence intensity of 65.1 a.u.
`ACGACCAAGTTCATCTAAAATTAACAGTGTTTCTGT` gave a fluorescence intensity of 83.1 a.u.
`GGGTACTGGTGCCGTCACGTGTGGACCATCTAATTC` has a fluorescence intensity of 1940 a.u.
For `TTCATTGGTGCAGAAAGCGTGCTTTCCGGGTCCCAG`, the fluorescence intensity was 68.1 a.u.
`ATAAGCCAGAATCCACACGGGAACTTCGGACTTTGC` has a fluorescence intensity of 72.1 a.u.
For `TGCGCAACAACTTGAGGGGTGGGTGTATGTCTAGAA`, the fluorescence intensity was 67.8 a.u.
`GGAATTGGTTCACTGATTGAAAGTGATTTTGAGAGG` gave a fluorescence intensity of 89.8 a.u.

Set 4 — technique: RNA Bind-n-Seq; form: RNA; matrix: in vitro; concentration: 200 nM; setting: whole 134-nt RNA, ends assumed; added: 150 mM KCl; reference: input library; direction: higher = stronger binding
Target: Fragile X messenger ribonucleoprotein 1, C-terminal low-complexity region (Fmr1, Mus musculus, UniProt P35922)
Constant ends, left off below: GGGAGUUCUACAGUCCGACGAUC … UGGAAUUCUCGGGUGUCAAGG
For `AAGUCCUGUGCUACACAUCGUAUGUACCGAAUCGGAAAAAAAGGUUUUUGGAAAGGAAAGUAUUAUGUUACGCCGUUCGGAUCUGCACUU`, the log2 enrichment was -1.4.
`CUCAAGUCCUGUGCUACACAUCGUAUGUACCGAAUCGGGUGGGUGGGAAAGGGAAAGUAUUAUGUUACGCCGUUCGGAUCUGCACUUCCA` has a log2 enrichment of 1.07.
The log2 enrichment of `CCUCAAGUCCUGUGCUACACAUCGUAUGUACCGAAUCGGGGCGGCGGGGCGGGAAAGUAUUAUGUUACGCCGUUCGGAUCUGCACUUCCA` is reported as 0.97.
The log2 enrichment of `AAGUCCUGUGCUACACAUCGUAUGUACCGAAUCGGGGCCCGGGGCCCGGGGCCCGGGAAAGUAUUAUGUUACGCCGUUCGGAUCUGCACU` is reported as -0.849.
With `GUCCUGUGCUACACAUCGUAUGUACCGAAUCGGGGUUUUUUUGGGGUGGGGUUUGGGGAAAGUAUUAUGUUACGCCGUUCGGAUCUGCAC` the log2 enrichment was 0.797.
For `UGGGAGGUGGAUUUUGUUUAUUUUUUUAGCUCAUUUCCAUGGGUGGGAAUUUUUUUUUAAUAUGUGUCAUGAAUAAAGUUGUUUUUGAAA`, the log2 enrichment was -0.0699.
With `UGGCCCUGGUGGCAUGCGGGGAGCAAGAGGUGGCCUCAUGGAUCGUGGUGGUCCCGGUGGAAUGUUCAGAGGUGGCCGUGGUGGAGACAG` the log2 enrichment was -0.114.
`UCCUGUGCUACACAUCGUAUGUACCGAAUCGGGCCCCCCGGGGCCCCCCGGGCCCCCCGGAAAGUAUUAUGUUACGCCGUUCGGAUCUGC` has a log2 enrichment of -0.31.
With `UGGGAGGUGGAUUUUGUUUUUUUUUUUAGCUCAUUUCCAGGGGUGGGAAUUUUUUUUUAAUAUGUGUCAUGAAUAAAGUUGUUUUUGAAA` the log2 enrichment was 0.31.

Set 5 — technique: universal PBM; form: double-stranded DNA, one strand shown; matrix: in vitro; concentration: 600 nM; direction: higher = stronger binding
Target: Sal-like protein 4, full length isoform A (SALL4, Homo sapiens, UniProt Q9UJQ4, residues 1-1053)
UniProt Q9UJQ4, sequence (whole entry, looked up): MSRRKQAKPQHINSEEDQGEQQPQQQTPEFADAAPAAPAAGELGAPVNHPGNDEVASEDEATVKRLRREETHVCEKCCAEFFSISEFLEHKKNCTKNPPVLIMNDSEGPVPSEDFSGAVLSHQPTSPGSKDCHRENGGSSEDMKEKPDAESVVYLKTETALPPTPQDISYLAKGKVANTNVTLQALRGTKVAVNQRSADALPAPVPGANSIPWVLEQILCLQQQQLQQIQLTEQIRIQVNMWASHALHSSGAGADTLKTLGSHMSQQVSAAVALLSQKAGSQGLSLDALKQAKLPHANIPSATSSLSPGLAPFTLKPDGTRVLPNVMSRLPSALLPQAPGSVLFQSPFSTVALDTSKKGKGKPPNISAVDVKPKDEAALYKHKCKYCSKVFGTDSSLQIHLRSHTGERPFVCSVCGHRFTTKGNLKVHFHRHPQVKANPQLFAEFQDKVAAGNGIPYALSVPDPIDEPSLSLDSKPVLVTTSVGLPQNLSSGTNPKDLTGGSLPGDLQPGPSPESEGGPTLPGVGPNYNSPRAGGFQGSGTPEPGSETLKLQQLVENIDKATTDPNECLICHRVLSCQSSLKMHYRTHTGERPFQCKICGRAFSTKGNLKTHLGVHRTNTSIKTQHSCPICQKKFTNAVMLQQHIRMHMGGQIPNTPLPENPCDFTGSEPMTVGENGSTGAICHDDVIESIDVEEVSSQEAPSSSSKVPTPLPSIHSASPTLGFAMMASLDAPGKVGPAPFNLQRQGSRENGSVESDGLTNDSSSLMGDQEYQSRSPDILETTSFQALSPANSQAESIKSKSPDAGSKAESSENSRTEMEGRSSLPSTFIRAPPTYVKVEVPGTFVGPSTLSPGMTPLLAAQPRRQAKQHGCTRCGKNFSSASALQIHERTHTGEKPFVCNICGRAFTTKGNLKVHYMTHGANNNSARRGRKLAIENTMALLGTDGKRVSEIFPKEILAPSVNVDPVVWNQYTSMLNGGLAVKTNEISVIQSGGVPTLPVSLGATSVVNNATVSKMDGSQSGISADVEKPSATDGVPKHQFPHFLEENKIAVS
Setting: 8-mer, flanks averaged, mean of replicates
`ACGGCCCT` has an E-score of -0.293.
For `ATCTGACG`, the E-score was -0.138.
With `ATGTAGTC` the E-score was 0.195.
For `CAAAAGGA`, the E-score was 0.182.
`CTTGCTCC` gave an E-score of 0.0169.
For `AGCAGAAT`, the E-score was 0.071.
With `GTACAGCA` the E-score was -0.0397.
For `ACCCTGTC`, the E-score was -0.16.
The E-score of `AGCAACTA` is reported as 0.198.
`GAACAAAA` has an E-score of 0.219.
`ACTGCACA` has an E-score of -0.0403.
With `CCTATACA` the E-score was 0.207.
`CCCATTTA` has an E-score of 0.0448.
`AGTGAGAA` gave an E-score of 0.105.
For `ATGGAGAA`, the E-score was 0.123.
With `CATGGAAG` the E-score was 0.163.
